Published values from different studies.
Protocols differ between the studies behind these lines.

Under “log2 fold change”, `Cc1ncsc1-c1ccc(C(C)NC(=O)C2CC(O)CN2C(=O)C(NC(=O)CCCCCCCCCCN2CCCC(Nc3ncc(Cl)c(Nc4ccccc4S(=O)(=O)C(C)C)n3)C2)C(C)(C)C)cc1` (stereo not shown) is recorded as -2.53 (22Rv1; RNA-seq, item: TSPEAR-AS1; concentration not given; reference: DMSO).
`COC(=O)c1cc(NC2=NC(=O)C(=Cc3ccc(C)cc3)S2)ccc1OC(C)=O` gave a metabolite level of 0.77 fold change (MCF7; GC-MS, item: Inosine; 1 µM; reference: DMSO).
The inhibition of `Cc1nn(C)cc1-c1cc2c(N3CCC[C@H](C(=O)NCc4ccc(OC(F)(F)F)cc4)C3)ncnc2[nH]1` is reported as 80.8% (NCI-H2228; cell growth or viability, MTT; 5 µg/mL, 72 h).
With `CSC(=S)N/N=C(\C)c1ccc(Nc2nnc(-c3ccc(Cl)cc3)c3ccccc23)cc1` the viability was 5.8% (MCF7; cell growth or viability, MTT; 5 µM, 24 h).
With `CNS(=O)(=O)Nc1nccc(Cc2c(C)c3ccc(Oc4ncccc4F)cc3oc2=O)c1F` the IC50 was over 1000 nM (786-O; cell viability, CellTiter-Glo; 7 days).
With `Cc1cc(NC2CCN(C)CC2)ccc1-c1cc2c(N3CCC[C@H](C(=O)NCc4ccc(Cl)nc4)C3)ncnc2[nH]1` the inhibition was 85.6% (NCI-H2228; cell growth or viability, MTT; 5 µg/mL, 72 h).
`COc1nc(Nc2nc(O)c3ccccc3n2)nc2ccc(C)cc12` gave an efficacy of 44% (LDR; silenced CMV-GFP reporter derepression, qHTS).
`COc1ccc2c(c1)c(CC(=O)[Se]CC(=O)Nc1cccc(C(F)(F)F)c1)c(C)n2C(=O)c1ccc(Cl)cc1` has a mean TGI of 3860 nM (NCI60 renal subpanel; total growth inhibition, inhibitor; five-dose).
For `Nc1ncc(-c2cc(-c3cnn(CC(F)(F)F)c3)ncc2F)nc1C(=O)NC1CNCC(F)C1` (stereo not shown), CHK2 phosphorylation read “decreased” (TNBC cells; Western blot; concentration not given).
The inhibition of `Cc1n[nH]c(C)c1-c1cc2c(N3CCC[C@H](C(=O)NCc4ccc(OC(F)(F)F)cc4)C3)ncnc2[nH]1` is reported as 67% (NCI-H2228; cell growth or viability, MTT; 0.04 µg/mL, 72 h).
For `O=C(C[Se]C(=O)C12CC3CC(CC(C3)C1)C2)Nc1cccc(C(F)(F)F)c1`, “mean growth percent” read -66.6% (NCI60 renal subpanel; cell growth; 10 µM, 48 h, one-dose).
`CC(=O)NCCCN(C)CCCNc1cccc2c1C(=O)c1cccc(NCCCN(C)CCCNC(C)=O)c1C2=O`: “log2 fold change” -3.2 (SAS; RNA-Seq, item: RBM43 mRNA; 1 µM, 6 h; reference: untreated cells).
For `COc1cc(-c2cc3c(N4CCC[C@H](C(=O)NCc5ccc(OC(F)(F)F)cc5)C4)ncnc3[nH]2)cc(OC)c1OC`, the inhibition was 67.4% (NCI-H2228; cell growth or viability, MTT; 1 µg/mL, 72 h).
With `CC(C)c1ccc(N(C)c2ccc3c(c2)OCC[C@H]3CNc2cnccc2C(=O)O)cc1` the IC50 was 6.89 nM (TE-9; cell viability, CellTiter-Glo; 7 days).
For `CN1CCCNC(=O)c2cccc(c2)C(=O)NCCCN(C)CCCNc2cccc3c2C(=O)c2cccc(c2C3=O)NCCC1`, “log2 fold change” read -0.82 (SAS; RNA-seq, item: NAV1 mRNA; 1 µM, 6 h; reference: untreated cells).
`CO[C@@H]1[C@@H](OC(N)=O)[C@@H](O)[C@H](Oc2ccc3c(O)c(NC(=O)c4ccc(O)c(CC=C(C)C)c4)c(=O)oc3c2C)OC1(C)C` gave a colony count of 1.5 (DLD-1 BRCA2-/-; 75 µM, replicate 1).
`Cc1sc2c(c1C)C(c1ccc(Cl)cc1)=N[C@@H](CC(=O)NCC(=O)N1CCC3(CCC(C(=O)N4CCN(C(=O)c5cc(Cc6n[nH]c(=O)c7ccccc67)ccc5F)CC4)CC3)CC1)c1nnc(C)n1-2` — result for “cells in G1 phase”: 28% (NCI-H82; 10 nM, 24 h).
With `CCN(CC)CC(=O)Nc1cccc(-n2cc(-c3ccc4ccc(-c5cn(-c6cccc(NC(=O)CN(CC)CC)c6)nn5)cc4c3)nn2)c1` the fold regulation was -1.1 fold (RCC4; PCR angiogenesis array, item: TGFBR1; 5 x IC50, 4 h, normoxia; reference: untreated).
For `CCn1nc(Cl)c2c1-c1cnc(N)c(c1)O[C@H](C)c1cc(F)ccc1-c1nn(C)cc1C2`, the Emax was 99.3% (Ba/F3 EML4-ALK v1, no mutation; cell viability).

Excerpt of the above:
`COC(=O)c1cc(NC2=NC(=O)C(=Cc3ccc(C)cc3)S2)ccc1OC(C)=O` gave a metabolite level of 0.77 fold change (MCF7; GC-MS, item: Inosine; 1 µM; reference: DMSO).
